Published values gathered from unrelated publications.
Each numbered part is a random draw from the data of one study; scales do not carry over between parts. Positions count from the first letter of the parent shown.

Set 1
Target: Histone acetyltransferase KAT6A, winged helix 1, GST fusion (KAT6A, Homo sapiens, UniProt Q92794, residues 1-85)
Technique: protein binding microarray
Form: double-stranded DNA, one strand shown
Medium: in vitro
Tested at: not given
Setting: 8-mer, flanks averaged, mean of 2 arrays, mostly near background
Reference: not given
Reading: higher = stronger binding
Target sequence (chain): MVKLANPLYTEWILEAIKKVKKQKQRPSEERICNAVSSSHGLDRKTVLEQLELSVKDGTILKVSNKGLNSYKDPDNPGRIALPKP
For `TTAAACAA`, the E-score was -0.285.
`AATCGAGG` has an E-score of -0.189.
With `GATTTCCA` the E-score was -0.113.
`TACCGAAA` has an E-score of -0.0285.
For `GGTTAGTA`, the E-score was 0.0335.
`AAGCGGCC` has an E-score of 0.338.
For `ATGATACG`, the E-score was -0.082.
For `ACAAGTAT`, the E-score was -0.12.
For `AAAAACTA`, the E-score was 0.0135.
With `CACTCATC` the E-score was -0.178.
For `ACAATATC`, the E-score was 0.00483.
The E-score of `CAATCCCC` is reported as -0.0962.
The E-score of `ACGTCCAG` is reported as -0.0489.
The E-score of `ACGTCGGC` is reported as 0.299.
For `AGCGATAG`, the E-score was -0.0633.
With `CACCGTAA` the E-score was 0.0617.
`CGCCAAGC` gave an E-score of 0.279.
`CGTTGCTC` has an E-score of 0.131.
For `TCCAGGAA`, the E-score was -0.0954.
With `AGAATAAT` the E-score was -0.273.
The E-score of `GGAGTACC` is reported as 0.0323.
For `GCTTATAC`, the E-score was 0.107.
With `TATCTGCA` the E-score was -0.214.
With `ATAACCGA` the E-score was -0.00718.
`CGCCACGC` gave an E-score of 0.356.

Set 2
Target: Prothrombin, mature alpha-thrombin (F2, Homo sapiens, UniProt P00734)
Technique: aptamer microarray, sandwich
Form: DNA with 2'F-ANA
Medium: in vitro
Tested at: 200 nM
Setting: whole 15-mer aptamer, many near background
Together with: Cy3 exosite-II aptamer, 400 nM
Reading: higher = stronger binding
Strand: GGTTGGTGTGGTTGG
`2'F-ANA at 4 6 7 9 10 14` — result for “mean fluorescence intensity”: 73.8 a.u.
Under “mean fluorescence intensity”, `2'F-ANA at 2 3 7 8 13 14 15` is recorded as 465 a.u.
`2'F-ANA at 8 13` — result for “mean fluorescence intensity”: 548 a.u.
Under “mean fluorescence intensity”, `2'F-ANA at 1 2 3 5 6 7 8 10 11 12 14` is recorded as 61.3 a.u.
`2'F-ANA at 4 5 6 7 8 9 10 11`: “mean fluorescence intensity” 49.7 a.u.
`2'F-ANA at 1 3 8 9 10 12 14` — result for “mean fluorescence intensity”: 60 a.u.
For `2'F-ANA at 1 2 3 4 5 6 7`, “mean fluorescence intensity” read 60.8 a.u.
`2'F-ANA at 1 5 6 7 8 10 12 14` — result for “mean fluorescence intensity”: 44.8 a.u.
For `2'F-ANA at 3 5 6 8 10 13 14 15`, “mean fluorescence intensity” read 61.3 a.u.
For `2'F-ANA at 1 2 3 4 5 6 7 8 9 12 14 15`, “mean fluorescence intensity” read 67.6 a.u.
`2'F-ANA at 3 4 11 12 13 15`: “mean fluorescence intensity” 637 a.u.
`2'F-ANA at 2 3 7 12 15` — result for “mean fluorescence intensity”: 1070 a.u.
`2'F-ANA at 2 6 8 10 11 14 15` — result for “mean fluorescence intensity”: 122 a.u.
`2'F-ANA at 1 2 5 6 12 13 14`: “mean fluorescence intensity” 49.5 a.u.
Under “mean fluorescence intensity”, `2'F-ANA at 1 2 3 4 5 6 7 8 9 10 12 13 14 15` is recorded as 52.2 a.u.
`2'F-ANA at 1 3 4 5 6 7 9 10 12` — result for “mean fluorescence intensity”: 50.6 a.u.
`2'F-ANA at 1 2 4 6 7 9 12 13`: “mean fluorescence intensity” 201 a.u.
`2'F-ANA at 2 3 4 5 6 12 15`: “mean fluorescence intensity” 195 a.u.
`2'F-ANA at 3 5 15`: “mean fluorescence intensity” 130 a.u.
`2'F-ANA at 1 2 4 7 8 13` — result for “mean fluorescence intensity”: 112 a.u.

Set 3
Target: Sal-like protein 4, full length isoform A (SALL4, Homo sapiens, UniProt Q9UJQ4, residues 1-1053)
UniProt Q9UJQ4, sequence (whole entry, looked up): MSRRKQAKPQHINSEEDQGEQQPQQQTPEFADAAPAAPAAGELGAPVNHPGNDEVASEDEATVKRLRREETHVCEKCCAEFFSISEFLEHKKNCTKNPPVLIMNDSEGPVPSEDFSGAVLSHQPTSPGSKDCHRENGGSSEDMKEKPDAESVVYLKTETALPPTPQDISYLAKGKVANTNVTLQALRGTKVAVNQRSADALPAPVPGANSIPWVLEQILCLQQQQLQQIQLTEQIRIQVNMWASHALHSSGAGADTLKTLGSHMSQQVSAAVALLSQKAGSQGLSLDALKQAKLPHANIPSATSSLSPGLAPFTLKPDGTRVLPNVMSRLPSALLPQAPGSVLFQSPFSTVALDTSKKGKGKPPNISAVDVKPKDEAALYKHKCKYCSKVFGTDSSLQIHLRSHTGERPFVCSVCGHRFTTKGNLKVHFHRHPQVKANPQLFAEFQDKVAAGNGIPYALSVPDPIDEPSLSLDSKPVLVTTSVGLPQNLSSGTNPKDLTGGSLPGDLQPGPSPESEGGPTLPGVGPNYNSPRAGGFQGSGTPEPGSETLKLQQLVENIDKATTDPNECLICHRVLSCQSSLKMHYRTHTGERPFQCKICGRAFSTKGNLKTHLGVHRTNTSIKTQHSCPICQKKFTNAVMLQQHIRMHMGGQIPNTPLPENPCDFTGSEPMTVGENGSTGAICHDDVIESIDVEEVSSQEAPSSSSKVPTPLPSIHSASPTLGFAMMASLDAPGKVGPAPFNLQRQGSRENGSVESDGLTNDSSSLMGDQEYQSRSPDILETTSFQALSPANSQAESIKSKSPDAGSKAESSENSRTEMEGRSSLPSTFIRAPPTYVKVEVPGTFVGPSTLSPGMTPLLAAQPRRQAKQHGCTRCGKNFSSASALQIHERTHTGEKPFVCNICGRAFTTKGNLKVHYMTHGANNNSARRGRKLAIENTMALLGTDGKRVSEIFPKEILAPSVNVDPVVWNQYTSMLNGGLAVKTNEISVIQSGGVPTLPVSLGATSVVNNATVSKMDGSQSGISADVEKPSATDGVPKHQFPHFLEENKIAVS
Technique: universal PBM
Form: double-stranded DNA, one strand shown
Medium: in vitro
Tested at: 600 nM
Setting: 8-mer, flanks averaged, mean of replicates
Reading: higher = stronger binding
For `CTACGCAC`, the E-score was -0.105.
`CGAGCCAA` has an E-score of -0.185.
`GGACGATA` has an E-score of 0.0483.
For `ATCTAGTC`, the E-score was 0.0151.
The E-score of `AATCTCGA` is reported as 0.135.
`ACTGGTGG` has an E-score of -0.241.
For `AAGCTGAC`, the E-score was -0.0418.
`AATTGAGC` has an E-score of 0.0885.
`GTAGTCGA` gave an E-score of 0.00737.
For `ATTTAGTC`, the E-score was 0.127.
`GAGCTCGA` gave an E-score of -0.122.
The E-score of `CCTCTACA` is reported as 0.0324.
`GCATACTA` gave an E-score of 0.0593.
`CCGCTCTC` has an E-score of -0.292.
With `GTAGACAC` the E-score was -0.0111.
The E-score of `ACCAAGTG` is reported as -0.0704.
`AATCCGAC` gave an E-score of 0.0367.
The E-score of `AATTGTAC` is reported as 0.219.
For `GCACTGAA`, the E-score was 0.0135.
For `ACCGTGAC`, the E-score was -0.18.
The E-score of `ACGGATGG` is reported as -0.0294.
For `ACACGCGC`, the E-score was -0.228.
For `CAATTATC`, the E-score was 0.289.

Set 4
Target: Max dimerization protein 1, bHLH-zipper, MAX partner unstated (MXD1, Homo sapiens, UniProt Q05195, residues 56-136)
Technique: protein-binding microarray
Form: double-stranded DNA, one strand shown
Medium: in vitro
Tested at: not given
Setting: k-mer, scored over probes, only values ≥0.25
Reading: higher = stronger binding
Construct (chain): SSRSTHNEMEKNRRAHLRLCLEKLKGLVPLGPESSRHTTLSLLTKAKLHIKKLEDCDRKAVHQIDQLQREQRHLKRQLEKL
`ACGTGTTC` has an E-score of 0.411.
`ACCACGAT` gave an E-score of 0.334.
The E-score of `ATGTGACC` is reported as 0.253.
`AAATCACG` gave an E-score of 0.301.
`CCCGTCCC` gave an E-score of 0.32.
The E-score of `ACATGAGG` is reported as 0.396.
`ACGTGGCC` gave an E-score of 0.377.
`AGTGGGGG` gave an E-score of 0.26.
With `CACGAGGC` the E-score was 0.432.
`CACGTGAG` gave an E-score of 0.479.
`GGGGCGCA` gave an E-score of 0.29.
For `AGCACGCT`, the E-score was 0.376.
`ACATGACC` has an E-score of 0.3.
The E-score of `ATGGGGCG` is reported as 0.279.
For `ACATGCAC`, the E-score was 0.402.
With `CAAACACG` the E-score was 0.375.

Set 5
Target: CCNA2, cyclin fold, Cln2 fusion (human)
Technique: yeast growth competition, sequencing
Medium: yeast
Setting: strong parent motif
Reference: not given
Reading: higher = stronger binding
Starting sequence: CDKN1A docking peptide (human); SKACRRLFGPVDS
`R5G`: “normalised enrichment score” 0.512.
`A3P`: “normalised enrichment score” 4.16.
For `R6I`, “normalised enrichment score” read 3.14.
Under “normalised enrichment score”, `G9E` is recorded as 5.88.
For `C4G`, “normalised enrichment score” read 1.47.
`K2D`: “normalised enrichment score” 3.62.
`R5A L7A`: “normalised enrichment score” 0.041.
For `A3K`, “normalised enrichment score” read 1.4.
`P10H` — result for “normalised enrichment score”: 5.03.
For `R5P`, “normalised enrichment score” read -0.29.
`K2A`: “normalised enrichment score” 4.54.
For `V11S`, “normalised enrichment score” read 6.13.
For `C4R`, “normalised enrichment score” read 7.07.
`K2H` — result for “normalised enrichment score”: 5.32.
For `D12A`, “normalised enrichment score” read 4.89.
Under “normalised enrichment score”, `A3G` is recorded as 2.24.
`L7R` — result for “normalised enrichment score”: 0.94.
For `V11Q`, “normalised enrichment score” read 6.08.
For `R6Q`, “normalised enrichment score” read 5.49.
For `R6H`, “normalised enrichment score” read 2.54.
`D12K`: “normalised enrichment score” 5.01.
`R6W`: “normalised enrichment score” 1.07.
For `K2Q`, “normalised enrichment score” read 4.89.
`A3L`: “normalised enrichment score” 2.6.
Under “normalised enrichment score”, `V11G` is recorded as 5.65.

Set 6
Target: Interferon regulatory factor 7, full length, phosphomimetic (IRF7, Homo sapiens, UniProt Q92985, residues 1-503, S101K/S471D/S472D/S475D/S476D/S477D/S483D/S484D/S487D)
Technique: protein-binding microarray
Form: double-stranded DNA, one strand shown
Medium: in vitro
Tested at: 250 nM
Setting: 60-bp whole probe
Together with: salmon DNA 0.4 mg/ml
Reference: random background probes
Reading: higher = stronger binding
Constant ends, left off below: GCCTAGCAC … GTCTTGATTCGCTTGACGCTGCTG
Target sequence (chain): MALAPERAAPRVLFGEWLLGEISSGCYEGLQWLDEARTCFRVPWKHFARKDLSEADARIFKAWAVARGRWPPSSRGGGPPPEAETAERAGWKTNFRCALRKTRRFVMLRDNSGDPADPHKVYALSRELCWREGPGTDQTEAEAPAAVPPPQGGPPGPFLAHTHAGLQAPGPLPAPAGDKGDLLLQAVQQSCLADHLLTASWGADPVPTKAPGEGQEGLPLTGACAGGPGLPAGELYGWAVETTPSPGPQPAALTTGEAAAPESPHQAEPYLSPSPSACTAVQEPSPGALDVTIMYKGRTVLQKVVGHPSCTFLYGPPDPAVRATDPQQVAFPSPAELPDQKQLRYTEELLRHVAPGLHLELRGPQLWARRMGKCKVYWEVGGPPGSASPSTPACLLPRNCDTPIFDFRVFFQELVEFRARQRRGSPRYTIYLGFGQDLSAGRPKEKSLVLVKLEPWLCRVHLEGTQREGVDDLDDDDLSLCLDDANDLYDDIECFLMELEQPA
`GACGGTATAGACTTTCGGGACGTGCTA` has a log fluorescence of -0.487 z-score.
With `TTTGGACTGCTTTTCCTTTAGTGCTAG` the log fluorescence was 0.714 z-score.
For `TGAGATTTCCATTATTGCTTGTGCTAG`, the log fluorescence was 0.0477 z-score.
With `TTAGGTATCGGGTTTCGCTTAGTGCTA` the log fluorescence was 5.51 z-score.
For `GACGGACTTCTTATCCTGACGTGCTAG`, the log fluorescence was -0.12 z-score.
For `GACGGATTCGACACTGGGGACGTGCTA`, the log fluorescence was 0.015 z-score.
With `GACGGTTTCAGTTCCGAGACGTGCTAG` the log fluorescence was 3.17 z-score.
With `TTAGGTTTCCTCTTCCTTTAGTGCTAG` the log fluorescence was 2.38 z-score.
With `TTAGAACTGAGTCTCGATCAGTGCTAG` the log fluorescence was -0.0372 z-score.
The log fluorescence of `ATTGGTCTTCACTTGGCAAAGTGCTAG` is reported as 0.408 z-score.
For `TTAGATCTCAGACGGGATTAGTGCTAG`, the log fluorescence was -0.103 z-score.
The log fluorescence of `GACGGTATCGGGGCTGGGGACGTGCTA` is reported as -0.423 z-score.
`GACGATTACAGTTTCGAGACGTGCTAG` gave a log fluorescence of 3.39 z-score.
The log fluorescence of `TCAAATTAGAATTTAAAACTGTGCTAG` is reported as 0.133 z-score.
With `TCTCTGTTCTTTTCAGTCCCGTGCTAG` the log fluorescence was 1.55 z-score.
For `TTATAACTGAGTATCGATTAGTGCTAG`, the log fluorescence was 1.02 z-score.
`TTAGGACCGGGGTTTCGGTTAGTGCTA` gave a log fluorescence of 5.85 z-score.
The log fluorescence of `TTTGGACTGGGGTTTCGGTTAGTGCTA` is reported as 4.79 z-score.
`TGATCTTCCTTCATGGCCTGGTGCTAG` has a log fluorescence of 0.552 z-score.

Excerpt of the above (set 5):
For `C4G`, “normalised enrichment score” read 1.47.
`K2D`: “normalised enrichment score” 3.62.
`R5A L7A`: “normalised enrichment score” 0.041.
For `A3K`, “normalised enrichment score” read 1.4.
`P10H` — result for “normalised enrichment score”: 5.03.
For `R5P`, “normalised enrichment score” read -0.29.
`K2A`: “normalised enrichment score” 4.54.
For `V11S`, “normalised enrichment score” read 6.13.
For `C4R`, “normalised enrichment score” read 7.07.
`K2H` — result for “normalised enrichment score”: 5.32.
For `D12A`, “normalised enrichment score” read 4.89.
Under “normalised enrichment score”, `A3G` is recorded as 2.24.
`L7R` — result for “normalised enrichment score”: 0.94.
For `V11Q`, “normalised enrichment score” read 6.08.
For `R6Q`, “normalised enrichment score” read 5.49.
For `R6H`, “normalised enrichment score” read 2.54.
`D12K`: “normalised enrichment score” 5.01.
`R6W`: “normalised enrichment score” 1.07.
